Published values gathered from unrelated publications.
Every numbered part comes from another study and shows a few of its results, in no order.
Chain of UniProt P06239 (whole entry, looked up): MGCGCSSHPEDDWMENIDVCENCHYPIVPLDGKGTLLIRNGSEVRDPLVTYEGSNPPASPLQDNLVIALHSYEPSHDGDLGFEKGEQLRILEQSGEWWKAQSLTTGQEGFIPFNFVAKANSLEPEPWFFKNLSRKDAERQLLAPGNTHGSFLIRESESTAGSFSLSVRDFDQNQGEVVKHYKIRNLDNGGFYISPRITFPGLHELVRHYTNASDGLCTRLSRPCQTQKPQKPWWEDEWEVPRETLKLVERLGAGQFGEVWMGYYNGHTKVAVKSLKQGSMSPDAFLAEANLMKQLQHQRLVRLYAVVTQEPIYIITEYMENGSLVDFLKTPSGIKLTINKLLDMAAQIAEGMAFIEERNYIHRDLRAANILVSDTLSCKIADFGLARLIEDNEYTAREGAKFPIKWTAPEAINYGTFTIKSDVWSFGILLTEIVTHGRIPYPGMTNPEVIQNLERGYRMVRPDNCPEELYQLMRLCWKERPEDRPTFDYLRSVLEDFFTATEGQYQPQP
Chain of UniProt Q9UHD2 (whole entry, looked up): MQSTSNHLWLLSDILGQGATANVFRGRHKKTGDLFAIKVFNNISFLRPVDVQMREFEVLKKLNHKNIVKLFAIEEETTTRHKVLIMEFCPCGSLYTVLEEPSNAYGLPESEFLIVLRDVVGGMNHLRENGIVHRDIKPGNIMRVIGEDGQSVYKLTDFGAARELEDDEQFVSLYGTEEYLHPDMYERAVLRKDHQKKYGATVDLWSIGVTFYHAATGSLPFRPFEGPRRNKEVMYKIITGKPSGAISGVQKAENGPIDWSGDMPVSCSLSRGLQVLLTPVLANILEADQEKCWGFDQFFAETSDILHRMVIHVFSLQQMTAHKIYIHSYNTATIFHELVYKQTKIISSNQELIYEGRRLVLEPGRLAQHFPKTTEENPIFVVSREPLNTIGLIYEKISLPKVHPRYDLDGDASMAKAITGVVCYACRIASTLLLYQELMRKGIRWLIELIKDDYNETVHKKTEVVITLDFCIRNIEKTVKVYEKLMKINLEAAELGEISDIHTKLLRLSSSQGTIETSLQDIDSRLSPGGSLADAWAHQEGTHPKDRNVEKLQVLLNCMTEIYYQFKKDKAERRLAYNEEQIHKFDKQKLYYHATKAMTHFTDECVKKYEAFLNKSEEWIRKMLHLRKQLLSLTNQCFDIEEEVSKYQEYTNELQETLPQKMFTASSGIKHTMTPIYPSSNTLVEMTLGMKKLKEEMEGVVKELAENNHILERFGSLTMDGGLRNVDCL
Chain of UniProt Q9HC98 (whole entry, looked up): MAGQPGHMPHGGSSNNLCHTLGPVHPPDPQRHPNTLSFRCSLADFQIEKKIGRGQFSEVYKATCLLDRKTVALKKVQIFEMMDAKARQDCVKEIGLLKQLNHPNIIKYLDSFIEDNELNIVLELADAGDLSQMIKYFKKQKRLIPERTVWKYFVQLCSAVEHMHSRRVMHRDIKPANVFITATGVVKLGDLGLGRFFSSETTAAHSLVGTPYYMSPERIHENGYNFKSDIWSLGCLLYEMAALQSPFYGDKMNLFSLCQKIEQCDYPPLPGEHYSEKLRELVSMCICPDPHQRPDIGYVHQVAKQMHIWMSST
Chain of UniProt Q99558 (whole entry, looked up): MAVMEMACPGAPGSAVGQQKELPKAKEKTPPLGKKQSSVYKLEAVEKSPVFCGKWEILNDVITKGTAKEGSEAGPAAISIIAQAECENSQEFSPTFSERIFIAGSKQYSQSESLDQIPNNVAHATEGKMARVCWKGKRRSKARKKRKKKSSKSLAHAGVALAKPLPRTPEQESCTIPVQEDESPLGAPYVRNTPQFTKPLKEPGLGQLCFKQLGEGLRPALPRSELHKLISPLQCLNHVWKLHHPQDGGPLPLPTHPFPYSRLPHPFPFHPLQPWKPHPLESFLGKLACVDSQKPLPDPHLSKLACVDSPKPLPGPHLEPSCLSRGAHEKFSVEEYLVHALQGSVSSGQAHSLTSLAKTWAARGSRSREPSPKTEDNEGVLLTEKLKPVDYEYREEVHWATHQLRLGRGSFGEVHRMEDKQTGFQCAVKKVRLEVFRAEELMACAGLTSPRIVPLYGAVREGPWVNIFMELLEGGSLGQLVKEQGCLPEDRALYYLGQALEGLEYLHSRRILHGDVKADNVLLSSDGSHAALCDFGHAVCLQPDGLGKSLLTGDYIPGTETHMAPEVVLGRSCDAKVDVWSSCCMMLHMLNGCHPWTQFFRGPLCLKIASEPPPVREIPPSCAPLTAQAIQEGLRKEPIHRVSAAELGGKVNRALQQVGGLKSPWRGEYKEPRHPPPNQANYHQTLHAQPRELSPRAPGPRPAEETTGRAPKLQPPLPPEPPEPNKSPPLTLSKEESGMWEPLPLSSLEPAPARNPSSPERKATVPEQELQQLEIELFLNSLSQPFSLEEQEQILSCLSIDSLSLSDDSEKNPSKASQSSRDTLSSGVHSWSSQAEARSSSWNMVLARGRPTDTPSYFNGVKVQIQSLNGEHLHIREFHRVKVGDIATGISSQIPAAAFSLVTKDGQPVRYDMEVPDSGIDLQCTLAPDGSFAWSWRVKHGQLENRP
Chain of UniProt P42685 (whole entry, looked up): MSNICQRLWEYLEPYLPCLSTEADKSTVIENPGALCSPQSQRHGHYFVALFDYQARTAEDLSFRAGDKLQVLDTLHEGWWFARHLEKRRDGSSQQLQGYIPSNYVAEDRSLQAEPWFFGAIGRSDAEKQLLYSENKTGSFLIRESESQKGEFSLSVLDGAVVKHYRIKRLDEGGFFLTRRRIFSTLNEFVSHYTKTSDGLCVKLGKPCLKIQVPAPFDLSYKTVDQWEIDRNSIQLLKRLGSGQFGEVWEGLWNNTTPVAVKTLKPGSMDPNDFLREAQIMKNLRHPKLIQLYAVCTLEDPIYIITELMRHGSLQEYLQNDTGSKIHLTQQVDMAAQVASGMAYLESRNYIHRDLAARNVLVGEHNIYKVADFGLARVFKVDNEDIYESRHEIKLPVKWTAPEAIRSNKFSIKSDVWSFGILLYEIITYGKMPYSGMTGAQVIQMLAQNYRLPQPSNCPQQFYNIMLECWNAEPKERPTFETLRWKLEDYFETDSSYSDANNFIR
Chain of UniProt P22607 (whole entry, looked up): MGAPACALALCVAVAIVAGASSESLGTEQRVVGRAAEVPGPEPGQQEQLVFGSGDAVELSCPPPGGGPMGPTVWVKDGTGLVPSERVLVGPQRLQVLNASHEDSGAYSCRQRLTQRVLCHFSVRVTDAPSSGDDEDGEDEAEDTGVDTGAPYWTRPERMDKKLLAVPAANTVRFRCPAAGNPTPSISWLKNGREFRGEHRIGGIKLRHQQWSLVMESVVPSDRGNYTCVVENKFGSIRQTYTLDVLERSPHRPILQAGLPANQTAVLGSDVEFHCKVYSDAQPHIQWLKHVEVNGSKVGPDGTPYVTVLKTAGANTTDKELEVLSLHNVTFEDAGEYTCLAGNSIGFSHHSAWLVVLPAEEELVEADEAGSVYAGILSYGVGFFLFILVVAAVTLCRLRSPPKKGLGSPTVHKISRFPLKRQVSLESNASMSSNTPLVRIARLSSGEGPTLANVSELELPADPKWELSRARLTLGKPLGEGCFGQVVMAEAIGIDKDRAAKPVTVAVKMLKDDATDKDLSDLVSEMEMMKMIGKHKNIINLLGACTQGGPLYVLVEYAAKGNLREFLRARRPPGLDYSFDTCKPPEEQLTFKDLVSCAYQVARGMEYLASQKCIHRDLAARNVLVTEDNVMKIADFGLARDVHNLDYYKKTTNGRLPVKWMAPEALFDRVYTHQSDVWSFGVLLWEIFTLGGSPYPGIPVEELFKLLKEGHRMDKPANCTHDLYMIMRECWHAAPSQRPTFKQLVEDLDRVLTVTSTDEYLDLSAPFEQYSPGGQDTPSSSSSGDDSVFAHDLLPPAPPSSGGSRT
Chain of UniProt P30291 (whole entry, looked up): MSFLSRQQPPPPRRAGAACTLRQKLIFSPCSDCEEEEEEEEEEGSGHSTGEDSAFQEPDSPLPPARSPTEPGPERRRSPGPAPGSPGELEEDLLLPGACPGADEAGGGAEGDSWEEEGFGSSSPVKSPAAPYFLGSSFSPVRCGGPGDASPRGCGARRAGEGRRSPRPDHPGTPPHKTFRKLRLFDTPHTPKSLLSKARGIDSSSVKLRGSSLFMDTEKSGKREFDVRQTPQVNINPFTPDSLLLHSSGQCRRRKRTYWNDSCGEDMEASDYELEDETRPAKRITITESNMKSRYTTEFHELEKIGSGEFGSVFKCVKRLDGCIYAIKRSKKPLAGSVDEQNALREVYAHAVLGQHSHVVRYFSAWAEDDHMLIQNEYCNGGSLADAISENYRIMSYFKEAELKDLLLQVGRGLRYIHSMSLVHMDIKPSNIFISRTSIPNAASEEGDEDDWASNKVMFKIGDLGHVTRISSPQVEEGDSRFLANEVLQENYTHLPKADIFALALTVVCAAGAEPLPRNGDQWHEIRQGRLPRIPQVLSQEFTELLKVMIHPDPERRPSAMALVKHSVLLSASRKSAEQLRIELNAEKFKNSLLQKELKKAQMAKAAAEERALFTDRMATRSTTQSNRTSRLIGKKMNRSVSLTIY
Chain of UniProt P27361 (whole entry, looked up): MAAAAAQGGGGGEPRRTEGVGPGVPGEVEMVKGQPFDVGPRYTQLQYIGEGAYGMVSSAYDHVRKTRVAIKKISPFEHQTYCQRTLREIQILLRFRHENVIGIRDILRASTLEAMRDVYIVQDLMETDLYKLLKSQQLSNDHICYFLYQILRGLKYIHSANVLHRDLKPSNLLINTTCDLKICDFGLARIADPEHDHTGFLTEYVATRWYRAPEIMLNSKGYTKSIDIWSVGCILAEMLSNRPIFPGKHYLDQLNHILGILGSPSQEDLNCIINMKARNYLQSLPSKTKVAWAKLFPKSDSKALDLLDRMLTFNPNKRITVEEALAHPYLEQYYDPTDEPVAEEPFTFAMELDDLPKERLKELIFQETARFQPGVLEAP

Sample 1
Cell line: HaCaT
Tested at: 100 µM
Time: 36 h
Compound	viability [%]
CN(C)CCN(Cc1ccc(Cl)cc1)c1ccccn1	59
CCC[C@H](NC(=O)[C@@H]1[C@H]2CCC[C@H]2CN1C(=O)[C@@H](NC(=O)[C@@H](NC(=O)c1cnccn1)C1CCCCC1)C(C)(C)C)C(=O)C(=O)NC1CC1	24.4
O=C1OC(CN2CCOCC2)CN1/N=C/c1ccc([N+](=O)[O-])o1 (stereo not drawn)	58.8
Cc1cccc(C)c1NC(=O)c1ccccc1C(=O)O	98.1

Sample 2
Compound: COc1cccc(CNC(=O)c2nc3scc(COCc4ccc(C(=O)O)cc4)c3c(=O)[nH]2)c1
Read-out: cell-free assay
Method: competition with immobilised ligand
Tested at: 1 µM
target	remaining binding [%]
Serine/threonine-protein kinase Chk1 (CHEK1, Homo sapiens, UniProt O14757)	95.5
Cyclin-dependent kinase 11B (CDK11B, Homo sapiens, UniProt P21127)	85.4
Ephrin type-A receptor 2 (EPHA2, Homo sapiens, UniProt P29317)	100
Mitogen-activated protein kinase kinase kinase 5 (MAP3K5, Homo sapiens, UniProt Q99683)	97.8

Sample 3
SMILES: CCN(CC)CCCCN1c2ccccc2Oc2ccc(Cl)cc21
Read-out: enzyme activity
Mode: inhibitor
Tested at: 0.5 µM
Relative to: control
target	remaining activity
Serine/threonine-protein kinase ULK2 (ULK2, Homo sapiens, UniProt Q8IYT8)	103%
Fibroblast growth factor receptor 3 (FGFR3, Homo sapiens, UniProt P22607)	91.8%
Mitogen-activated protein kinase kinase kinase 14 (MAP3K14, Homo sapiens, UniProt Q99558)	95.6%
Dual specificity mitogen-activated protein kinase kinase 2 (MAP2K2, Homo sapiens, UniProt P36507)	88.4%
Wee1-like protein kinase (WEE1, Homo sapiens, UniProt P30291)	92.7%
Tyrosine-protein kinase ABL2 (ABL2, Homo sapiens, UniProt P42684)	101%
Ribosomal protein S6 kinase alpha-2 (RPS6KA2, Homo sapiens, UniProt Q15349)	88%
Mitogen-activated protein kinase kinase kinase 5 (MAP3K5, Homo sapiens, UniProt Q99683)	106%
Serine/threonine-protein kinase TBK1 (TBK1, Homo sapiens, UniProt Q9UHD2)	86.3%
Serine/threonine-protein kinase Nek6 (NEK6, Homo sapiens, UniProt Q9HC98)	107%
Tyrosine-protein kinase FRK (FRK, Homo sapiens, UniProt P42685)	98.4%
Mitogen-activated protein kinase 3 (MAPK3, Homo sapiens, UniProt P27361)	111%
Tyrosine-protein kinase Lck (LCK, Homo sapiens, UniProt P06239)	94.6%
Macrophage-stimulating protein receptor (MST1R, Homo sapiens, UniProt Q04912)	112%

Sample 4
Target: Hepatocyte nuclear factor 3-alpha (Foxa1, Mus musculus, UniProt P35582, residues 1-468, full length assumed)
Method: EMSA with sequencing
Form: double-stranded DNA, one strand shown
Medium: in vitro
Tested at: 10 and 20 nM
Notes: whole designed probe, mean of two concentrations, ends assumed
Relative to: negative control set to 0
Direction: higher = stronger binding
Construct (chain): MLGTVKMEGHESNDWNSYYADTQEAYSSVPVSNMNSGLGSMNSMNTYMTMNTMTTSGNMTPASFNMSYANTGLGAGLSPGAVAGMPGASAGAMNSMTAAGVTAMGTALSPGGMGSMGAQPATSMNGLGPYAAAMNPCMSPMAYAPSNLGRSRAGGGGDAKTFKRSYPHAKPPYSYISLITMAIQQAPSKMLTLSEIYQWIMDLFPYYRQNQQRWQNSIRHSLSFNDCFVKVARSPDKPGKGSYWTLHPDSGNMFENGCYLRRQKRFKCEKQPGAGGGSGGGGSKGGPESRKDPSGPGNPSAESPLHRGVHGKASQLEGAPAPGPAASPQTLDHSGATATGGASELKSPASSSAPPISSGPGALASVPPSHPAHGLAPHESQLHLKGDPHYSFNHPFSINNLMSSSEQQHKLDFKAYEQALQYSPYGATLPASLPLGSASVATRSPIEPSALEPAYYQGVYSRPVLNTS
Oligonucleotide	normalised bound fraction [ratio]
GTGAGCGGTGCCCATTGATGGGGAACATCTTCCCCCTCTTCCTTGCCCCACCAGCTCACCTTCCCGGGTATATTGGAGATAGGAAATTAATATAAGCCGGCATTCGTTAACCCTCTTCACGCGCATACTGCCAAAGTAAACAGATCTAACATGGTCCTTTGGCGACGCCAGGCTCCGGGAGAGCAAAGCACCGTGTCAGGGCCATGATCCGGGGTGGCCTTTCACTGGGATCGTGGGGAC	0.419
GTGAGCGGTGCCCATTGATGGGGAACGTGAGGTCCTGAGGCCCAGGGAAGGGCCCAGGGAGCTCCAGGGACAGTGGAGAGAGGCAGAGACGGGCAGTGCTGGAGATAGAACAGTAAGAGTAAACAGGGATGGATAAACAGGGGCTGAGGGGTAAAGTCCAGAAAGGCCCAGCCAAAACCAGCAACCAAGTGGCCTCCAGTTACCCGGTAAGCACTTAGATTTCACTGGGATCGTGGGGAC	0.144
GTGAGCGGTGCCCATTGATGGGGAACGTGTGTGCGCGCGCGTGTGTGTGTGTTTTCTTAAGCCGGGCTATTCAAACCCTGCTGCAATTCTCCGGTAAACAATGATTCATGGGGCATAATGCAATTTAACGGATTGCAAACGGCGCGGTTCGCGCACTTTGCAGCCGGCCCGGTGGAGCAGCCAGTGCCGGATTTCTCCCTTTTTTTGCAGATCTGCAGATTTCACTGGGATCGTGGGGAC	0.135
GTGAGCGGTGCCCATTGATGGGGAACGGGATTACAGGTGTGAGCCACTGCACCCGGCCACAAATTTTATAGTTTATTTTTCAGTGTCCTATTATCTCAAATTGTGAGGCACACATTTTCCTGTTTACTCTGCCTACTGACTTTCCCTAATTGACGATGGCCTAGGATGATGTAGAGTTTGTTTCCTTGAATGGTTTATATTTTTTATTTTGAACTGATTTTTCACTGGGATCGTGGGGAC	0.165
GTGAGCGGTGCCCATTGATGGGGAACATGAAGGGCTGCCAGTGTAATTTGAACCTCAAATAAACAACAGATAAAACTGTAGTATAAGTATGTCCCATATTGCACAACATACGATCTTTTTGTTTGCCTAATCTGGCAAAGATATTGACTTAACACACACTAATCTGTTGACAGGTAGGTGAAATATTTGAACTTCTACGTTGCTTCTCTAATCCTGTCCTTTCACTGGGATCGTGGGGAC	0.393
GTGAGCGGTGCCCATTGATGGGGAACGCCTAGTGCACATCCCAGCCCTGCCTCCTGCCCCGCCTGCACGCCATGAGTGCTGAAGTCATGCCTGGCAGGGGCTGCTGGCCCAGGCCCAGAGTAAACACACTGCGCTGAGCTCGCTGGTGTGCTGCTGGATGCTGATGAGCTTGAGGAGTGTGGGAAGTGAGCATGGGGCTGAGTAGAGATGCGGCAGGCCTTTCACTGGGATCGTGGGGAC	0.248
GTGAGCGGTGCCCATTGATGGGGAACATCTTCCCCCTCTTCCTTGCCCCACCAGCTCACCTTCCCGGGTTGTTTACTTTGAGTATTTATTTTCAAGCCGGCATTCGTTAACCCTCTTCTGGCGCAAACTGCTGTTTACTTTGGATGAATCATGGTCCTTTGGCGACGCCAGGCTCCGGGAGAGCAAAGCACCGTGTCAGGGCCATGATCCGGGGTGGCCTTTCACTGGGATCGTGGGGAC	0.454
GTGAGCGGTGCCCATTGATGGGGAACTAAATTCCATATAAATTATACATACAAATACATATTATATATGATATAAATATTTGTTATAACATATTATATAAAATATAAATATATACAATGTAATCTTATATATTATTCTATACATGTAAATTATATAGAAAGAATAATATATAAAATGTATATATCTATGTCAGGCACAATTACGTGTGTTATTCAATTTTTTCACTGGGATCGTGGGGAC	0.409

Some of these lines once more (sample 4):
Oligonucleotide	normalised bound fraction [ratio]
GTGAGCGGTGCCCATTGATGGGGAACTAAATTCCATATAAATTATACATACAAATACATATTATATATGATATAAATATTTGTTATAACATATTATATAAAATATAAATATATACAATGTAATCTTATATATTATTCTATACATGTAAATTATATAGAAAGAATAATATATAAAATGTATATATCTATGTCAGGCACAATTACGTGTGTTATTCAATTTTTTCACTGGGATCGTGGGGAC	0.409
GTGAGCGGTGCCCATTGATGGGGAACGCCTAGTGCACATCCCAGCCCTGCCTCCTGCCCCGCCTGCACGCCATGAGTGCTGAAGTCATGCCTGGCAGGGGCTGCTGGCCCAGGCCCAGAGTAAACACACTGCGCTGAGCTCGCTGGTGTGCTGCTGGATGCTGATGAGCTTGAGGAGTGTGGGAAGTGAGCATGGGGCTGAGTAGAGATGCGGCAGGCCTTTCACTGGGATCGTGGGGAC	0.248
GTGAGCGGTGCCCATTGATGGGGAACGTGAGGTCCTGAGGCCCAGGGAAGGGCCCAGGGAGCTCCAGGGACAGTGGAGAGAGGCAGAGACGGGCAGTGCTGGAGATAGAACAGTAAGAGTAAACAGGGATGGATAAACAGGGGCTGAGGGGTAAAGTCCAGAAAGGCCCAGCCAAAACCAGCAACCAAGTGGCCTCCAGTTACCCGGTAAGCACTTAGATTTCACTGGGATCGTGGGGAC	0.144
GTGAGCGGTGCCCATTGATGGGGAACATCTTCCCCCTCTTCCTTGCCCCACCAGCTCACCTTCCCGGGTTGTTTACTTTGAGTATTTATTTTCAAGCCGGCATTCGTTAACCCTCTTCTGGCGCAAACTGCTGTTTACTTTGGATGAATCATGGTCCTTTGGCGACGCCAGGCTCCGGGAGAGCAAAGCACCGTGTCAGGGCCATGATCCGGGGTGGCCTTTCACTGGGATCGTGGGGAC	0.454
